Measured values pooled from the literature.
Compare with care: the assays were run in different laboratories. ± marks the error that the study gave.

Compound | cell line | assay | system | conditions | CC50
CC(C)C[C@@H]1NC(=O)[C@@H](Cc2c[nH]c3ccccc23)NC(=O)[C@H](CCCNC(=N)N)NC(=O)[C@@H](CCC(=O)O)NC(=O)[C@H](CCC(N)=O)NC(=O)[C@@H](CCC(=O)O)NC(=O)[C@H](CCCNC(=N)N)NC(=O)[C@@H](Cc2c[nH]c3ccccc23)NC1=O | SK-OV-3 | cytotoxicity |  |  | > 40 µM
O=C(CCN(CCC(=O)N[C@@H](Cc1c[nH]c2ccccc12)C(=O)O)C(=O)CCN(CCC(=O)N(CCC(=O)N[C@@H](Cc1c[nH]c2ccccc12)C(=O)O)CCC(=O)N[C@@H](Cc1c[nH]c2ccccc12)C(=O)O)C(=O)[C@H]1C[C@@H](C(=O)N(CCC(=O)N(CCC(=O)N[C@@H](Cc2c[nH]c3ccccc23)C(=O)O)CCC(=O)N[C@@H](Cc2c[nH]c3ccccc23)C(=O)O)CCC(=O)N(CCC(=O)N[C@@H](Cc2c[nH]c3ccccc23)C(=O)O)CCC(=O)N[C@@H](Cc2c[nH]c3ccccc23)C(=O)O)C[C@@H](C(=O)N(CCC(=O)N(CCC(=O)N[C@@H](Cc2c[nH]c3ccccc23)C(=O)O)CCC(=O)N[C@@H](Cc2c[nH]c3ccccc23)C(=O)O)CCC(=O)N(CCC(=O)N[C@@H](Cc2c[nH]c3ccccc23)C(=O)O)CCC(=O)N[C@@H](Cc2c[nH]c3ccccc23)C(=O)O)C1)N[C@@H](Cc1c[nH]c2ccccc12)C(=O)O | RD |  |  |  | > 27 µM
COc1ccccc1CNC(=O)CSc1c[nH]c2ccccc12 | HEK293T | cell viability, CCK-8 |  | 24 h | 75.5 µM
CC(=O)CCC1C(=O)NC(C(C)C)C(=O)NC(Cc2cc(O)cc(F)c2)C(=O)N2CCCC(N2)C(=O)OC(C(C)=CC=CC(=O)N2CCCCO2)CC=CC=CC(O)C(C)C1O (centres unmarked) | Huh-5-2 | MTS |  | 3 days | > 100 µM
CC[C@H](C)[C@@H]1NC(=O)[C@H](CCCCN)NC(=O)[C@H](CCCCN)NC(=O)[C@H](Cc2ccc(O)cc2)NC(=O)[C@H](CC(C)C)NC(=O)[C@@H]2CCCN2C(=O)[C@H](C)NC(=O)CNC(=O)CNC(=O)[C@H](CO)NC(=O)CNC(=O)CNC(=O)[C@H](CO)NC(=O)[C@H](CCC(=O)O)NC(=O)[C@H](CC(C)C)NC(=O)[C@H](CC(C)C)NC(=O)[C@H](CCCCN)NC(=O)[C@H](CCCCN)NC(=O)[C@H]([C@@H](C)CC)NC(=O)[C@H]([C@@H](C)CC)NC(=O)[C@H](CCCCN)NC(=O)[C@H](CCCCN)NC(=O)[C@H](Cc2ccc(O)cc2)NC(=O)[C@H](CC(C)C)NC(=O)[C@@H]2CCCN2C(=O)CNC(=O)CNC(=O)CSC[C@@H](C(N)=O)NC(=O)[C@H](CC(C)C)NC(=O)[C@H](CCCCN)NC(=O)[C@H](CCCCN)NC(=O)[C@H]([C@@H](C)CC)NC1=O | MM96L | cell viability, resazurin |  | 24 h | 3.5 ± 0.2 µM
O=C1CC(c2ccccc2)Oc2ccccc21 (centres unmarked) | Vero E6-GFP | cell viability |  | 72 h, added: CP-100356 2 µM | > 100 µM
CCC(C)SSc1ncc[nH]1 (centres unmarked) | RD |  |  | 3 (unit not given), 37 °C | 7.1 µM
O=C(CCN(CCC(=O)NC(Cc1c[nH]c2ccccc12)C(=O)O)C(=O)C1CC(C(=O)N(CCC(=O)NC(Cc2c[nH]c3ccccc23)C(=O)O)CCC(=O)NC(Cc2c[nH]c3ccccc23)C(=O)O)CC(C(=O)N(CCC(=O)NC(Cc2c[nH]c3ccccc23)C(=O)O)CCC(=O)NC(Cc2c[nH]c3ccccc23)C(=O)O)C1)NC(Cc1c[nH]c2ccccc12)C(=O)O (centres unmarked) | RD |  |  | 3 (unit not given) | > 85 µM
C=C(C)[C@@H]1CC[C@]2(CO)CC[C@]3(C)[C@H](CC[C@@H]4[C@@]5(C)CCCNC(C)(C)[C@@H]5CC[C@]43C)[C@@H]12 | C-33 A | cell viability, CellTiter-Glo |  |  | 11.9 µM
CC[C@H](C)[C@@H]1NC(=O)[C@H](CCCCN)NC(=O)[C@H](CCCCN)NC(=O)[C@H](Cc2ccc(O)cc2)NC(=O)[C@H](CC(C)C)NC(=O)[C@@H]2CCCN2C(=O)[C@H](C)NC(=O)CNC(=O)CNC(=O)[C@H](CO)NC(=O)CNC(=O)CNC(=O)[C@H](CO)NC(=O)[C@H]([C@@H](C)O)NC(=O)[C@H](CC(C)C)NC(=O)[C@H](CC(C)C)NC(=O)[C@H](C)NC(=O)[C@H](Cc2c[nH]c3ccccc23)NC(=O)[C@H](Cc2ccc(O)cc2)NC(=O)[C@H](Cc2c[nH]cn2)NC(=O)[C@H](CCC(=O)O)NC(=O)[C@H](Cc2ccccc2)NC(=O)[C@H]([C@@H](C)O)NC(=O)[C@H](CC(C)C)NC(=O)[C@@H]2CCCN2C(=O)CNC(=O)CNC(=O)CSC[C@@H](C(N)=O)NC(=O)[C@H](CC(C)C)NC(=O)[C@H](CCCCN)NC(=O)[C@H](CCCCN)NC(=O)[C@H]([C@@H](C)CC)NC1=O | MM96L | cell viability, resazurin |  | 24 h | > 32 µM
C=C(C)[C@@H]1CC[C@]2(C(=O)NC(CO)Cc3ccccc3)CC[C@]3(C)[C@H](CC[C@@H]4[C@@]5(C)CCCNC(C)(C)[C@@H]5CC[C@]43C)[C@@H]12 (some centres unmarked) | primary HFF | cell viability, CellTiter-Glo |  | HSV-1 assay setting | 3.22 µM
CC[C@H](C)[C@H](NC(=O)[C@H](CCCNC(=N)N)NC(=O)[C@H](Cc1ccccc1)NC(=O)[C@H](C)NC(=O)[C@@H](NC(=O)[C@H](Cc1ccccc1)NC(=O)[C@H](CC(C)C)NC(=O)[C@H](CC(C)C)NC(=O)[C@H](CCC(N)=O)NC(=O)[C@H](CCC(N)=O)NC(=O)[C@H](CC(C)C)NC(C)=O)[C@@H](C)CC)C(=O)NCC(=O)N[C@@H](CCCNC(=N)N)C(=O)N[C@@H](CCCNC(=N)N)C(=O)N[C@@H](CCCNC(=N)N)C(=O)N[C@@H](CCCNC(=N)N)C(=O)N[C@@H](CCCNC(=N)N)C(=O)N[C@@H](CCCNC(=N)N)C(=O)N[C@@H](CCCNC(=N)N)C(=O)N[C@@H](CCCNC(=N)N)C(N)=O | MT4 Luc | luciferase signal decrease |  |  | > 5 µM
Cc1cc(C)cc([C@H]2C[C@@H]2C(=O)N[C@H](C(=O)NCc2ccccc2)c2ccc(C)c(C)c2)c1 | BHK-21 | cell growth or viability, MTT |  | 24 h | > 100 µM
C1=[N+]2CCCC[N+]3=Cc4ccc5[n]4[Au-]23[n]2c1ccc2-c1nc2ccccc2nc1-5.F[P-](F)(F)(F)(F)F | NCI60 non-small cell lung lines |  |  |  | 97 µM
O=C(CSc1[nH]c2ccccc2c1SCC(=O)Nc1ccc(Cl)c(Cl)c1)Nc1ccc(Cl)c(Cl)c1 | HEK293T | cell viability, CCK-8 |  | 24 h | 96.2 µM
O=C(CCN(CCC(=O)N[C@@H](Cc1c[nH]c2ccccc12)C(=O)O)C(=O)CCN(CCC(=O)N(CCC(=O)N[C@@H](Cc1c[nH]c2ccccc12)C(=O)O)CCC(=O)N[C@@H](Cc1c[nH]c2ccccc12)C(=O)O)C(=O)c1cc(C(=O)N(CCC(=O)N(CCC(=O)N[C@@H](Cc2c[nH]c3ccccc23)C(=O)O)CCC(=O)N[C@@H](Cc2c[nH]c3ccccc23)C(=O)O)CCC(=O)N(CCC(=O)N[C@@H](Cc2c[nH]c3ccccc23)C(=O)O)CCC(=O)N[C@@H](Cc2c[nH]c3ccccc23)C(=O)O)cc(C(=O)N(CCC(=O)N(CCC(=O)N[C@@H](Cc2c[nH]c3ccccc23)C(=O)O)CCC(=O)N[C@@H](Cc2c[nH]c3ccccc23)C(=O)O)CCC(=O)N(CCC(=O)N[C@@H](Cc2c[nH]c3ccccc23)C(=O)O)CCC(=O)N[C@@H](Cc2c[nH]c3ccccc23)C(=O)O)c1)N[C@@H](Cc1c[nH]c2ccccc12)C(=O)O | RD |  |  |  | > 27 µM
COc1cc(O)c2c(c1)/C=C/C[C@H](O)[C@H](O)C(=O)/C=C\C[C@H](C)OC2=O | Calu-3, infected | alamarBlue |  | 24 h post infection | > 20 µM
CC[C@H](C)[C@H](NC(=O)[C@H](CCCNC(=N)N)NC(=O)[C@H](Cc1ccccc1)NC(=O)[C@H](Cc1cnc[nH]1)NC(=O)[C@H](C)NC(=O)[C@H](Cc1ccccc1)NC(=O)[C@H](CC(C)C)NC(=O)[C@H](CC(C)C)NC(=O)[C@H](CCC(N)=O)NC(=O)[C@H](CCC(N)=O)NC(=O)[C@H](CC(C)C)NC(C)=O)C(=O)NCC(=O)N[C@@H](CCCNC(=N)N)C(=O)N[C@@H](CCCNC(=N)N)C(=O)N[C@@H](CCCNC(=N)N)C(=O)N[C@@H](CCCNC(=N)N)C(=O)N[C@@H](CCCNC(=N)N)C(=O)N[C@@H](CCCNC(=N)N)C(=O)N[C@@H](CCCNC(=N)N)C(=O)N[C@@H](CCCNC(=N)N)C(N)=O | MT4 Luc | luciferase signal decrease |  |  | > 5 µM
CCN(CC)CCCC(C)Nc1cc[n+]([Ru-]2[NH2+]CC[NH2+]2)c2cc(Cl)ccc12.Cc1ccc(C(C)C)cc1.F[P-](F)(F)(F)(F)F.F[P-](F)(F)(F)(F)F (centres unmarked) | Jurkat | PI flow cytometry |  | 20 h | 86 µM
COc1ccc(-c2cnc3[nH]cc(C#Cc4cccnc4)c3c2)cc1OC | Calu-3, infected | alamarBlue |  | 24 h post infection | > 20 µM
CC(C)C[C@@H]1NC(=O)[C@@H](Cc2c[nH]c3ccccc23)NC(=O)[C@H](CCCN)NC(=O)[C@@H](CO)NC(=O)[C@H](CCC(N)=O)NC(=O)[C@@H](CCC(=O)O)NC(=O)[C@H](CO)NC(=O)[C@@H](Cc2c[nH]c3ccccc23)NC1=O | SK-OV-3 | cytotoxicity |  |  | > 40 µM
Cc1cccc(NC(=O)CSc2c[nH]c3ccccc23)c1 | HEK293T | cell viability, CCK-8 |  | 24 h | 93.5 µM
C=C1C(=O)O[C@@H]2C[C@H](C)[C@@H]3C[C@H](OC(C)=O)[C@H](OC(C)=O)[C@@]3(C)C[C@H]12 | mouse Splenocyte | cell growth or viability, flow cytometry | BALB/c | 48 h | 241 µM
CC(C)C[C@H](NC(=O)OCc1ccccc1)C(=O)N[C@@H](C[C@@H]1CCNC1=O)C(O)S(=O)(=O)O (some centres unmarked) | RD |  |  | 3 (unit not given), 33 °C, added: MgCl2 30 mM | > 50 µM
Cc1cc(C(NC(=O)C2CC2c2ccc(C)c(C)c2)C(N)=O)cc(C(F)(F)F)c1 (mixture of isomers) | BHK-21 | cell growth or viability, MTT |  | 24 h | > 100 µM
CCN(CC)CCCC(C)Nc1c2cc(Cl)ccc2nc2ccc(Cl)cc12 (centres unmarked) | U2OS ACE2-GFP |  |  | 20 (unit not given) | 4.41 µM

A few entries again:
Compound | cell line | assay | system | conditions | CC50
COc1cc(O)c2c(c1)/C=C/C[C@H](O)[C@H](O)C(=O)/C=C\C[C@H](C)OC2=O | Calu-3, infected | alamarBlue |  | 24 h post infection | > 20 µM
CCC(C)SSc1ncc[nH]1 (centres unmarked) | RD |  |  | 3 (unit not given), 37 °C | 7.1 µM
